Published values gathered from unrelated publications.
Protocols differ between the studies behind these lines.
4'-phosphopantetheinyl transferase PptT: 4'-phosphopantetheinyl transferase PptT (Mycobacterium tuberculosis, UniProt O33336)
UniProt O33336, sequence (whole entry, looked up): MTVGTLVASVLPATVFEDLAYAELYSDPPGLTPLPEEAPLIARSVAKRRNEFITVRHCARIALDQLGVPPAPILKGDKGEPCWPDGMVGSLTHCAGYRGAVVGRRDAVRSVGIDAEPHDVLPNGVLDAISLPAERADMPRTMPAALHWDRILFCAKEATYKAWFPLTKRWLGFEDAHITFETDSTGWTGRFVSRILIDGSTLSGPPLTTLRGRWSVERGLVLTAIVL
UniProt P11229, sequence (whole entry, looked up): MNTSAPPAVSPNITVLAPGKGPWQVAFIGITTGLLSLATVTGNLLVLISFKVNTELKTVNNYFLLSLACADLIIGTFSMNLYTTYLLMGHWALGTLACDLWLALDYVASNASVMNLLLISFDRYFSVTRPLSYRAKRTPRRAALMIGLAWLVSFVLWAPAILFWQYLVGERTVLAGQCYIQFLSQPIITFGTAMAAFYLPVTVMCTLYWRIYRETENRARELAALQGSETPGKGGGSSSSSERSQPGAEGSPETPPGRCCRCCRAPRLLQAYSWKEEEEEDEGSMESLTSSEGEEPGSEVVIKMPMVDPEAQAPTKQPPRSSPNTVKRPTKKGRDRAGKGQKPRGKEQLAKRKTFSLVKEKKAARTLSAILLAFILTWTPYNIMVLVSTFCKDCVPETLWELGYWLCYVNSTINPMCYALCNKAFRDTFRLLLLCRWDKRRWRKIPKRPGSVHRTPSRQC
UniProt P25929, sequence (whole entry, looked up): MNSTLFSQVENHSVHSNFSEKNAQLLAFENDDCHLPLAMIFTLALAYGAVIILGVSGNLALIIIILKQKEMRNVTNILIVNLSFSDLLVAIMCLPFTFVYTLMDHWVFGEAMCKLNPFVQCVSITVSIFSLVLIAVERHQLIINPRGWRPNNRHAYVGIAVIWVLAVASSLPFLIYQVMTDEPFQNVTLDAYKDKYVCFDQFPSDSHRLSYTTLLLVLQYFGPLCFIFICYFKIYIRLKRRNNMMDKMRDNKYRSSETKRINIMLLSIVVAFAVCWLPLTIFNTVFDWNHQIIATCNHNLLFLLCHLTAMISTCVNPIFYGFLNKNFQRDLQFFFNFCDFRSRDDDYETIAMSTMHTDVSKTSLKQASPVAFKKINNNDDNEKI
UniProt Q9BX84, sequence (whole entry, looked up): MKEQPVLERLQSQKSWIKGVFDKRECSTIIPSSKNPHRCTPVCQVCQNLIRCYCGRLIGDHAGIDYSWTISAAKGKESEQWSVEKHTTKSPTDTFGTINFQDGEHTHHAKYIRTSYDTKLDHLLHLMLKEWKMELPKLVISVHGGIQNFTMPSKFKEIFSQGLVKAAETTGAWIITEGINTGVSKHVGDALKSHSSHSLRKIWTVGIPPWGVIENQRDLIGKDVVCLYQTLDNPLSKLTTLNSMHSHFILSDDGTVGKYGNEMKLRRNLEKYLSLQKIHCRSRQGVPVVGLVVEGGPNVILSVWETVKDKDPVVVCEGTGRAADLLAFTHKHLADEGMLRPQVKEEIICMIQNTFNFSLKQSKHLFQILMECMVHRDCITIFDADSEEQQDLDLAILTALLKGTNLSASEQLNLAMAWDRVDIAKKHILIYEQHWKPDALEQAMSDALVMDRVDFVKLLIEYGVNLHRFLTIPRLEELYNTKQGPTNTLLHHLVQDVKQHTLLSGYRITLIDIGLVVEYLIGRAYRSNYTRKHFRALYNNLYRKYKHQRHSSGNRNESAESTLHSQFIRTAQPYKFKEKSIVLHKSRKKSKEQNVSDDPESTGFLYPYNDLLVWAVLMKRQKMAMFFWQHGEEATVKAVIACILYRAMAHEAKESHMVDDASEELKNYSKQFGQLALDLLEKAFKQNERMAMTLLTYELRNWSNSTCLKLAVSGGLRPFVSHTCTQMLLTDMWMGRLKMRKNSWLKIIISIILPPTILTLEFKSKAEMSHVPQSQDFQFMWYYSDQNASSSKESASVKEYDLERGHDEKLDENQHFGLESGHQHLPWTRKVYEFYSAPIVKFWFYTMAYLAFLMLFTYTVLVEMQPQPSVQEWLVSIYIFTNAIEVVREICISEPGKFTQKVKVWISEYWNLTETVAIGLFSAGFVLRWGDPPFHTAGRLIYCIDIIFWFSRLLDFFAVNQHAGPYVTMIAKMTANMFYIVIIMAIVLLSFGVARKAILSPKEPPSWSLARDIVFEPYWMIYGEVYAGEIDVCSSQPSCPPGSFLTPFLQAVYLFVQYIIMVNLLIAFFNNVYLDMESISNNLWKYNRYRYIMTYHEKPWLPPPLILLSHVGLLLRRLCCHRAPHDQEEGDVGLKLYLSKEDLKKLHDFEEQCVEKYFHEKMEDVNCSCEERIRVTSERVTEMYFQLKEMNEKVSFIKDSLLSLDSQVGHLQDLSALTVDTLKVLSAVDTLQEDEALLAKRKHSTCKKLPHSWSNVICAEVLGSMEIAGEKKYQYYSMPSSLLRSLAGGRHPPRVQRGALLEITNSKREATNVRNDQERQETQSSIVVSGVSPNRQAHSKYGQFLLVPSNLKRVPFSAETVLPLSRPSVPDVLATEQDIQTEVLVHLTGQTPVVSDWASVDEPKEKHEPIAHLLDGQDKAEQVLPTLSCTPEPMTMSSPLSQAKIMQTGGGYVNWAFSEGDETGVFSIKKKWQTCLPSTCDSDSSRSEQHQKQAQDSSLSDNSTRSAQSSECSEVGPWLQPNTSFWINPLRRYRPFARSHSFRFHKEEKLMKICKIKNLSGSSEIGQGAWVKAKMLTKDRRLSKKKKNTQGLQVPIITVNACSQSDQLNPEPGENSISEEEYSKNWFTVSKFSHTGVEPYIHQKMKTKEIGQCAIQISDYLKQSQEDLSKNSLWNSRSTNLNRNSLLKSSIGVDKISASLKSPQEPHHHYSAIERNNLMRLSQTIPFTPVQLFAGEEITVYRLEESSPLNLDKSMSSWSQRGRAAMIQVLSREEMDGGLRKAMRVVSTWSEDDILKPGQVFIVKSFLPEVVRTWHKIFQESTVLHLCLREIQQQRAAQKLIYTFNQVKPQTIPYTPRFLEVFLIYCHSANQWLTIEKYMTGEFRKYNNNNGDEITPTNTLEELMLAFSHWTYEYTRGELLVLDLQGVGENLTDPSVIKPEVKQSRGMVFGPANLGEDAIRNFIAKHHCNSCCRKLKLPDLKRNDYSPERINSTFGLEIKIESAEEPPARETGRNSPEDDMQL
UniProt Q09013, sequence (whole entry, looked up): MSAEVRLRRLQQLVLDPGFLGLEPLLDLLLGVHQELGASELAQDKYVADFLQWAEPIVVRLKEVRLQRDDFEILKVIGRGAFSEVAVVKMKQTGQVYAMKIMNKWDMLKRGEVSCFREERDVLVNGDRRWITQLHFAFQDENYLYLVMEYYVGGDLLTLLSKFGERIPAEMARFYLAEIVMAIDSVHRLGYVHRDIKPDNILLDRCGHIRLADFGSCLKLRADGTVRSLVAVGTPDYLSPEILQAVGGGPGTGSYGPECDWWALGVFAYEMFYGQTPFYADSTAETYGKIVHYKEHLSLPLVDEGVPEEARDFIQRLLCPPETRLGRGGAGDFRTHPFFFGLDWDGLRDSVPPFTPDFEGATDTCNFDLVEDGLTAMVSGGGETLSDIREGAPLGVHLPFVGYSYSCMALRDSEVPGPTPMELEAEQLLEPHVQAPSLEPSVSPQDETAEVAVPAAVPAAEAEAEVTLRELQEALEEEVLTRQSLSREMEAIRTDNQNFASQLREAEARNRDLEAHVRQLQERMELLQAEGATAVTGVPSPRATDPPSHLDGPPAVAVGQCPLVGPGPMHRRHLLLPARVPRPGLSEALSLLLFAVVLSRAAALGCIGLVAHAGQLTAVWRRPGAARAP
UniProt P78356, sequence (whole entry, looked up): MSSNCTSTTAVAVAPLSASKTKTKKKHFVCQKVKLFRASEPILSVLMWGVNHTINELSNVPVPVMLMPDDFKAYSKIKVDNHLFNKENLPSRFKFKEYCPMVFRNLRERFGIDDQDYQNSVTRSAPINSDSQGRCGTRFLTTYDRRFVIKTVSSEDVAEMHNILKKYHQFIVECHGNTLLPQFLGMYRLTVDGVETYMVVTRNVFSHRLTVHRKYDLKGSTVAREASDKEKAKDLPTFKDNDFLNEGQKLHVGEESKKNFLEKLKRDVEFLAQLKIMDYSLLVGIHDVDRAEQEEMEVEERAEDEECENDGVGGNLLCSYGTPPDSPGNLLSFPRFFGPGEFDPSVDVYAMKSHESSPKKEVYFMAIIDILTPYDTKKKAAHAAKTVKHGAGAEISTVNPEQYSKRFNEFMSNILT
UniProt P20309, sequence (whole entry, looked up): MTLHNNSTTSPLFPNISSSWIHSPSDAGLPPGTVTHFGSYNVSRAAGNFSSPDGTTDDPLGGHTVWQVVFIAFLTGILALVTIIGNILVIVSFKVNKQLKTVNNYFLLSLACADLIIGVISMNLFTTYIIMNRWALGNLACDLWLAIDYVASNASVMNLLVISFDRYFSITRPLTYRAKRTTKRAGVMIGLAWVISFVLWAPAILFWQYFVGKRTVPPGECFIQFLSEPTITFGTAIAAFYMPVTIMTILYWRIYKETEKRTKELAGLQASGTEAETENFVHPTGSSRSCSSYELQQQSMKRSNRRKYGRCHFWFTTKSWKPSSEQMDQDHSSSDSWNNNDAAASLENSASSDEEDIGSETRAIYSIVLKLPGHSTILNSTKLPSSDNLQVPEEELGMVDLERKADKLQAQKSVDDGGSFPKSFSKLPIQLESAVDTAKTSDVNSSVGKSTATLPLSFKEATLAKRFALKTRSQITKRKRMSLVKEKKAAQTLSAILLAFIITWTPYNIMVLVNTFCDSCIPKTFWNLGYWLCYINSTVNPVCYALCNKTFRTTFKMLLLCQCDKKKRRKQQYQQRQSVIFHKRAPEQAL

For Cc1nn(C)cc1-c1nc2c(N3CCN(Cc4ccc(Cl)cc4)CC3)c(Cl)cnc2[nH]1, the remaining binding was 100% (PIK3CA (Homo sapiens, UniProt P42336, E545K); binding, competition with immobilised ligand; 1 µM).
The remaining binding of Nc1ncc(-c2nc(N3CCOCC3)nc(N3CCOCC3)n2)c(C(F)F)n1 is reported as 100% (PIP4K2B (Homo sapiens, UniProt P78356); binding, competition with immobilised ligand; 10 µM).
The Emax of CCCCC(CC)COC(=O)c1ccccc1C(=O)O (stereo not drawn) is reported as 60% (PPARA (Homo sapiens, UniProt Q07869); reporter gene, agonist, luciferase).
O=c1c2cc(Cl)c(CO)cc2[nH]c(=S)n1Cc1cncc(-c2nnn[nH]2)c1 gave an IC50 of 0.34 µM (4'-phosphopantetheinyl transferase PptT; enzyme activity, inhibitor, FP).
For CN1CC[C@@]2(C)c3cc(OC(=O)Nc4ccccc4)ccc3N(C)[C@@H]12, the inhibition was 0% (CHRM1 (Homo sapiens, UniProt P11229); ligand displacement, radioligand; 10 µM).
C#Cc1n[nH]c2c(-c3cn(C(C)c4ccccn4)c(=O)[nH]c3=O)cc(F)cc12 (stereo not drawn) gave an inhibition of 11.2% (CLK4 (Homo sapiens, UniProt Q9HAZ1); enzyme activity, inhibitor; 1 µM).
c1cncc([C@@H]2CCCN2)c1 gave an inhibition of -15.1% (CHRM3 (Homo sapiens, UniProt P20309); ligand displacement; 50 µM).
CN[C@]1(c2ccccc2Cl)CCCCC1=O has an inhibition of -1% (MAPK3 (Homo sapiens, UniProt P27361); enzyme activity, inhibitor; 30 µM).
CC(C)CC(=O)OC[C@H]1O[C@@](C#N)(c2ccc3c(N)ncnn23)[C@H](O)[C@@H]1O gave an inhibition of 2% (NPY1R (Homo sapiens, UniProt P25929); cell-free assay; 20 µM).
COC(=O)OCc1cc2[nH]c(=S)n(Cc3cncnc3)c(=O)c2cc1Cl gave an IC50 of 4.18 µM (4'-phosphopantetheinyl transferase PptT; enzyme activity, inhibitor, FP).
COc1ncccc1-c1cnn2ccc(N3CCN(C(=O)OC(C)C)CC3)nc12 has a remaining binding of 100% (TRPM6 (Homo sapiens, UniProt Q9BX84); binding, competition with immobilised ligand; 1 µM).
For [2H]c1c([2H])c([C@]2([2H])CCCN2C(=O)C(C)(C)Oc2ccc3cn[nH]c3c2)c([2H])c([2H])c1C([2H])([2H])[2H], the remaining binding was 69% (DMPK (Homo sapiens, UniProt Q09013); binding, competition with immobilised ligand; 1 µM).

Some of these lines once more:
CC(C)CC(=O)OC[C@H]1O[C@@](C#N)(c2ccc3c(N)ncnn23)[C@H](O)[C@@H]1O gave an inhibition of 2% (NPY1R (Homo sapiens, UniProt P25929); cell-free assay; 20 µM).
